Published values pooled from the literature.
Every numbered part comes from another study and shows a few of its results, in no order. “And” joins repeats or separate records; there may be more than shown.
Chain of UniProt Q9P0L2 (whole entry, looked up): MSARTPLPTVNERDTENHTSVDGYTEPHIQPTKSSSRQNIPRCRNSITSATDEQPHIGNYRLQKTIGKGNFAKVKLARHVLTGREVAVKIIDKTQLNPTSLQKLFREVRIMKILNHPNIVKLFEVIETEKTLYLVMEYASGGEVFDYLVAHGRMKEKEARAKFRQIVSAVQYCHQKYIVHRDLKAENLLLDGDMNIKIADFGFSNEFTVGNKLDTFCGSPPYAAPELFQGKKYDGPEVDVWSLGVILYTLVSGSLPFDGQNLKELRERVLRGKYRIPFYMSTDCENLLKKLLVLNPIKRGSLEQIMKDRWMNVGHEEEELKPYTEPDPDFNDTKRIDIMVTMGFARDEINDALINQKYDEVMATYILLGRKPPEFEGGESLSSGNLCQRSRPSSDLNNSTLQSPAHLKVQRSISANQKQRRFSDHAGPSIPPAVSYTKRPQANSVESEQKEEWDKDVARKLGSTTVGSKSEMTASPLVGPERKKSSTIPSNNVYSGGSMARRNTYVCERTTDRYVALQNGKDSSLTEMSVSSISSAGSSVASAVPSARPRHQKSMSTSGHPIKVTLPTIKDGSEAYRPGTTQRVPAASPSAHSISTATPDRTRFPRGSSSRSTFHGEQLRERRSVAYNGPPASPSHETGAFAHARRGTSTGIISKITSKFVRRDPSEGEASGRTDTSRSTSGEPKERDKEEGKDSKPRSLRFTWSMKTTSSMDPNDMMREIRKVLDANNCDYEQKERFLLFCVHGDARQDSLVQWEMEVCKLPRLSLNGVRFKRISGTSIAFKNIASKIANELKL
Chain of UniProt P45985 (whole entry, looked up): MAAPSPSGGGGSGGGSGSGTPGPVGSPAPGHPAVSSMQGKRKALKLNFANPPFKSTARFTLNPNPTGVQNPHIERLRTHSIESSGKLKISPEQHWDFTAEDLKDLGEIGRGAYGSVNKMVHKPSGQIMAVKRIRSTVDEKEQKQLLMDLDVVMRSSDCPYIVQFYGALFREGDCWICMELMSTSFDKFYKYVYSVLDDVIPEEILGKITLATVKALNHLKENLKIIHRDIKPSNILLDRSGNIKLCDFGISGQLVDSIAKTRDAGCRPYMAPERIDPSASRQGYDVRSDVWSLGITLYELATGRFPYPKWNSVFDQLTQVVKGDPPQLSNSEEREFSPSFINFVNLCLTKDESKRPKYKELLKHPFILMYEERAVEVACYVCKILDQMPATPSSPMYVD
Chain of UniProt O75676 (whole entry, looked up): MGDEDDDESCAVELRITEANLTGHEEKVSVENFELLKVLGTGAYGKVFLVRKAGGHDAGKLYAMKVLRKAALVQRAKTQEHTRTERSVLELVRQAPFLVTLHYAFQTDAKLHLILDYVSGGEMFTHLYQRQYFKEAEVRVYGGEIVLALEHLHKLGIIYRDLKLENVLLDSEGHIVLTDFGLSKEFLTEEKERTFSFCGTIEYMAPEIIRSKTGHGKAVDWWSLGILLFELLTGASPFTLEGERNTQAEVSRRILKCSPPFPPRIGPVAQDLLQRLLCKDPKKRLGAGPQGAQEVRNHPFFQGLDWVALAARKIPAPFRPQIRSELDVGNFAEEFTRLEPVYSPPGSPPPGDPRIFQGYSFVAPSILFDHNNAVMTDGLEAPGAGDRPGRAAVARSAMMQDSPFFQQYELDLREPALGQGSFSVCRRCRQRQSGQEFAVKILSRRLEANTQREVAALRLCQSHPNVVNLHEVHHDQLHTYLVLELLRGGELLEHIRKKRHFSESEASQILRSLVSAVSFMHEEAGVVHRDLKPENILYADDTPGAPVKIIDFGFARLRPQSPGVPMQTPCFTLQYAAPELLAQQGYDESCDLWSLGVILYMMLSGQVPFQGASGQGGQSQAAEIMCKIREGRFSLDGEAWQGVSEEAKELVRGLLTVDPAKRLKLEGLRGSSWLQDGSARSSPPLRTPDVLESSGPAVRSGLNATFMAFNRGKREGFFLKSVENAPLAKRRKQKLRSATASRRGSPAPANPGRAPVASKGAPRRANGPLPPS
Chain of UniProt Q9Y2K2 (whole entry, looked up): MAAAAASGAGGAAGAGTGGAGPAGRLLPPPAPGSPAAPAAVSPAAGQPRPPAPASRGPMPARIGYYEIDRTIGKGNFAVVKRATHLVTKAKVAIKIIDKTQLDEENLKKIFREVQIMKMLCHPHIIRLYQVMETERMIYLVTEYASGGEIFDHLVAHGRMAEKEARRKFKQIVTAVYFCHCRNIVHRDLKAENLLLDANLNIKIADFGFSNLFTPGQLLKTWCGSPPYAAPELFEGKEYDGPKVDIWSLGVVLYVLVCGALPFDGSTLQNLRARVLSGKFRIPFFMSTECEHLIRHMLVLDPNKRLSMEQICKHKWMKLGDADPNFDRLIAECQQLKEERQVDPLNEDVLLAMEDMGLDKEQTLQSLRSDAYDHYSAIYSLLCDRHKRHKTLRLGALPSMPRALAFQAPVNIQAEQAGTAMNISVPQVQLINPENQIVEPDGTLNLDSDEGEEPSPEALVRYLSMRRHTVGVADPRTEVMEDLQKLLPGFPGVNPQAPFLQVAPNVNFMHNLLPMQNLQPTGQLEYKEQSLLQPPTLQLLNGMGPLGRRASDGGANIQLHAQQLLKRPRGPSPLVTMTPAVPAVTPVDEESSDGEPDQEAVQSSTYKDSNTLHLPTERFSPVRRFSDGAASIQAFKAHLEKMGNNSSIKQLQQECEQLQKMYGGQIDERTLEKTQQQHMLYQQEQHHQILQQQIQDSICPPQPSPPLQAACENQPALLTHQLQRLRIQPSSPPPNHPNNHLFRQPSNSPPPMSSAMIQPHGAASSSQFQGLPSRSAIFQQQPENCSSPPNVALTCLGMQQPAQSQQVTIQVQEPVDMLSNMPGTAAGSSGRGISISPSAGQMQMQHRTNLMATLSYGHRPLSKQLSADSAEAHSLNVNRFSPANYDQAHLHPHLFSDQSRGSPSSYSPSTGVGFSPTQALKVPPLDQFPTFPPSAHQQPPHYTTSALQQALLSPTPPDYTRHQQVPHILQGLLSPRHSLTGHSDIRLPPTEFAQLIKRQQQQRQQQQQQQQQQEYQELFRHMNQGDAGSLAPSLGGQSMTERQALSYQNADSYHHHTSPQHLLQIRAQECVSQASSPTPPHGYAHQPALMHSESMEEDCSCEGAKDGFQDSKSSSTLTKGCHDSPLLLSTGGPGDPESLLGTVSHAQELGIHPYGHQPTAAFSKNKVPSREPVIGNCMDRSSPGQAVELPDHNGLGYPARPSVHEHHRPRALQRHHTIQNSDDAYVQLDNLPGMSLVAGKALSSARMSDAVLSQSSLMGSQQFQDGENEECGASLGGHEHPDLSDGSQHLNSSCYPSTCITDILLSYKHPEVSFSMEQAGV
Chain of UniProt Q13153 (whole entry, looked up): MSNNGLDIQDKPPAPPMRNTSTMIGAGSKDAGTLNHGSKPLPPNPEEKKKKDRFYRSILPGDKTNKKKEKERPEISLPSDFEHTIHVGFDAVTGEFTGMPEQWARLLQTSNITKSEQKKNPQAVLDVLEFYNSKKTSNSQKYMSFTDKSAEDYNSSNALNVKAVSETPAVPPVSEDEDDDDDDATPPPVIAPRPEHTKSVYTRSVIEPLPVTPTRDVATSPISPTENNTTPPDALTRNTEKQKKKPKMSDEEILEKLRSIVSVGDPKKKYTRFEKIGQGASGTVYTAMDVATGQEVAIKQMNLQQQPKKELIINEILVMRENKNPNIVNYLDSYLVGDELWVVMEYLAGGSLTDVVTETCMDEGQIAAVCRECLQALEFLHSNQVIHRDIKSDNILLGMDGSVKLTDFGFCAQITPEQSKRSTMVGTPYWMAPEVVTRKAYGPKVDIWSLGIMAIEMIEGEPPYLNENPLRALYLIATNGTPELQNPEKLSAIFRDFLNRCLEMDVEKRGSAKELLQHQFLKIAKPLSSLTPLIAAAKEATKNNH

Study 1 — host: human; medium: microsomes or S9; concentration: 2 µM; time: 0.5 h
SMILES	remaining compound [%]
CCN(C(=O)c1ccccc1)[C@@H]1CCO[C@H](c2ccc(C(=O)Nc3ncccc3C)cc2)C1	96.5
O=C(COC(=O)c1ccc(Br)o1)c1ccc(Cl)c(Cl)c1	83.3
O=C(CN1CCOCC1)N1CCC(c2nc(-c3ccccc3)no2)C1 (centres unmarked)	99.1
COc1ccccc1CNC(=O)C1(C)Cc2ccccc2C(=O)N1c1ccc(Cl)cc1 (centres unmarked)	1.86

Study 2 — effect on: cell-free assay; method: competition with immobilised ligand; concentration: 1 µM
SMILES: O=C(O)[C@@H]1[C@@H](Cn2nnc3ccccc3c2=O)CC[C@H]1C(=O)c1ccc(OCCC2CCOCC2)cc1
target	remaining binding [%]
SIK3 (Homo sapiens, UniProt Q9Y2K2)	84
PAK1 (Homo sapiens, UniProt Q13153)	95
MARK1 (Homo sapiens, UniProt Q9P0L2)	100
MAP2K4 (Homo sapiens, UniProt P45985)	100
Ribosomal protein S6 kinase alpha-4, C-terminal kinase domain (RPS6KA4, Homo sapiens, UniProt O75676)	85

Study 3 — effect on: enzyme activity; mode: inhibitor; concentration: 0.5 µM; relative to: control
Target: Serine/threonine-protein kinase MARK2 (MARK2, Homo sapiens, UniProt Q7KZI7)
Chain of UniProt Q7KZI7 (whole entry, looked up): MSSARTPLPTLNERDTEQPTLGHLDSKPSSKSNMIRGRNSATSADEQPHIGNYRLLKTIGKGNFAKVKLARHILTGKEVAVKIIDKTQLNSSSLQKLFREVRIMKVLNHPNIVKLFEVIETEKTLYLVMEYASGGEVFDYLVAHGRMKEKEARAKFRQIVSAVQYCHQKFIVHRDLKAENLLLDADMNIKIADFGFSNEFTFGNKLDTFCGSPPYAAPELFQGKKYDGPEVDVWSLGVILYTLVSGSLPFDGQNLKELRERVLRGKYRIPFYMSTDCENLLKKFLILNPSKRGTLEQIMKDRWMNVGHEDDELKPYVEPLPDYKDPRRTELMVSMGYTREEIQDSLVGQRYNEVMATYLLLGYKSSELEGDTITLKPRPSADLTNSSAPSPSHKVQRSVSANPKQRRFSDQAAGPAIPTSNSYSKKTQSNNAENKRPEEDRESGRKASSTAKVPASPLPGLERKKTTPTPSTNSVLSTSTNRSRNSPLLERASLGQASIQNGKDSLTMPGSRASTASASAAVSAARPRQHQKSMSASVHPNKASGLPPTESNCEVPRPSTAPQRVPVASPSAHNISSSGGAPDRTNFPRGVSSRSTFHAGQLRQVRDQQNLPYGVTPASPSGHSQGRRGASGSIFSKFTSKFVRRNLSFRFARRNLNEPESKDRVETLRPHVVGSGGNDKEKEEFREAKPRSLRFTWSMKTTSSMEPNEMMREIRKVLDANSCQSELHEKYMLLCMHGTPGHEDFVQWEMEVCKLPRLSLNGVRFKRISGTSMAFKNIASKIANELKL
SMILES	remaining activity [%]
O=S(=O)(c1cccc2cnccc12)N1CCCNCC1	108
CO[C@H]1C[C@@H]2CC[C@@H](C)[C@@](O)(O2)C(=O)C(=O)N2CCCC[C@H]2C(=O)O[C@H]([C@H](C)C[C@@H]2CC[C@@H](O)[C@H](OC)C2)CC(=O)[C@H](C)/C=C(\C)[C@@H](O)[C@@H](OC)C(=O)[C@H](C)C[C@H](C)/C=C/C=C/C=C/1C	104
O=C1NC(=O)C(c2cn(CCCO)c3ncccc23)=C1c1cnccn1	97.5
CN(C)c1ccc(C=C2C(=O)Nc3ccccc32)cc1	105
Cc1ccc(NC(=O)c2ccc(CN3CCN(C)CC3)cc2)cc1Nc1nc(-c2cccnc2)cs1	104
Oc1ccc(-c2nc(-c3ccncc3)c(-c3ccc(F)cc3)[nH]2)cc1	99
CC(C)[C@H](CO)Nc1nc(Nc2cc(N)cc(Cl)c2)c2ncn(C(C)C)c2n1	74.1
COc1cc2ncnc(Nc3ccc(F)c(Cl)c3)c2cc1OCCCN1CCOCC1	119
CCOC(=O)c1c(C)[nH]c(/C=C2\C(=O)Nc3ccccc32)c1C	87.6
Nc1ccc2ncnc(NCCc3ccc(Oc4ccccc4)cc3)c2c1	84.9
COc1ccc(OC)c2c(=S)c3ccccc3[nH]c12	93.9
O=C(Nc1cccc(Nc2cc(Nc3cccc(C(F)(F)F)c3)ncn2)c1)C1CC1	101
Nc1[nH]nc2nc3ccccc3nc12	110
N#CC(C#N)=C(N)/C(C#N)=C/c1ccc(O)cc1	91.3
Cc1ccc(Nc2nccc(N(C)c3ccc4c(C)n(C)nc4c3)n2)cc1S(N)(=O)=O	111

Study 4 — method: phase 2a trial; host: idiopathic pulmonary fibrosis patients
SMILES: CC(C)n1cnc(-c2ccc(F)cc2)c1-c1ncc(C(=O)Nc2ccc(N3CCN(C)CC3)cc2)[nH]1
setting	patients with soft tissue infection
30 mg once daily, grade 2	0%
30 mg once daily, grade 3	0%
60 mg once daily, grade 1	0%
30 mg once daily, grade 1	0%

Mixed results — effect on: binding; mode: competitor; method: NanoBRET; cells: HEK293
SMILES	target	setting	how to read	normalized BRET
CCC(=O)N1CCN(c2nc(OC[C@@H]3CCCN3C)nc3c2CCN(c2cccc4cccc(Cl)c24)C3)C[C@@H]1CC#N	GTPase KRas (KRAS, Homo sapiens, UniProt P01116, G12D)	5.08 nM	–	102% and 98.5%
C=C(F)C(=O)N1CCN(c2nc(OC[C@@H]3CCCN3C)nc3c2CCN(c2cccc4cccc(Cl)c24)C3)C[C@@H]1CC#N	GTPase HRas (HRAS, Homo sapiens, UniProt P01112)	2.22 µM	–	98.1% and 101%
CC(=O)N1CCN(c2nc(OC[C@@H]3CCCN3C)nc3c2CCN(c2cccc4cccc(Cl)c24)C3)C[C@@H]1CC#N	GTPase KRas (KRAS, Homo sapiens, UniProt P01116, Q61H)	1.69 nM	–	94.2% and 99.8% and 107%
Cn1cnc(Cn2ccc3ccc(CNCc4[nH]c5ccccc5c4[C@H]4NC(=O)c5ccc(O)cc54)cc32)c1	GTPase KRas (KRAS, Homo sapiens, UniProt P01116, G12C)	9.14 nM, 1 h	relative to: vehicle and 20 µM BI compound	88% and 99% and 92.7% and 90.5%

Repeated from above (study 1):
SMILES	remaining compound [%]
COc1ccccc1CNC(=O)C1(C)Cc2ccccc2C(=O)N1c1ccc(Cl)cc1 (centres unmarked)	1.86
CCN(C(=O)c1ccccc1)[C@@H]1CCO[C@H](c2ccc(C(=O)Nc3ncccc3C)cc2)C1	96.5
O=C(CN1CCOCC1)N1CCC(c2nc(-c3ccccc3)no2)C1 (centres unmarked)	99.1
